Assay results collected from several papers.
Each line is one published result; not all experiments were run side by side.
Chain of UniProt P35462 (whole entry, looked up): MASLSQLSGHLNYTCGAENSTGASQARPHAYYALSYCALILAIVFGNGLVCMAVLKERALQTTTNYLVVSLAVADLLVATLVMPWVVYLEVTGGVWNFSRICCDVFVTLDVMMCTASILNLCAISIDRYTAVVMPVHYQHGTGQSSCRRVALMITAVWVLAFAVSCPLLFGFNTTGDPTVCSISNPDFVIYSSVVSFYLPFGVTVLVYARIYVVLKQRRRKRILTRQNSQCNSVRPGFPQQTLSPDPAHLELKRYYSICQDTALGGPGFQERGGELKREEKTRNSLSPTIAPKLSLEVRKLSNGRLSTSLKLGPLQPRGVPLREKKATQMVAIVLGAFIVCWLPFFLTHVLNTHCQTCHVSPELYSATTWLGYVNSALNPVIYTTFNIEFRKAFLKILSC
Chain of UniProt P06239 (whole entry, looked up): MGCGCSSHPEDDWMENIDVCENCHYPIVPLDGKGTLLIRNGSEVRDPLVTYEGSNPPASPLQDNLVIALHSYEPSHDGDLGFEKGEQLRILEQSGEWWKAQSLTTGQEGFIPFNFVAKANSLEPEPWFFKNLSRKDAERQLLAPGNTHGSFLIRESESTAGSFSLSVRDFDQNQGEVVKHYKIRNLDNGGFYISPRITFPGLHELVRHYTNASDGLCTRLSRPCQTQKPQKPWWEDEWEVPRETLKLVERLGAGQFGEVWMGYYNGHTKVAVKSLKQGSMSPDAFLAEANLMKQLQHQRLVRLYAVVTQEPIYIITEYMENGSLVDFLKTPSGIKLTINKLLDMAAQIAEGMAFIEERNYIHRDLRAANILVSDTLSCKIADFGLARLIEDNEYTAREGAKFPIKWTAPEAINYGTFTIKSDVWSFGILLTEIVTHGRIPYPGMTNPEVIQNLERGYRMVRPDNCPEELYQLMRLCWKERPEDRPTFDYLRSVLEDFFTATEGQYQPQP
Chain of UniProt P49759 (whole entry, looked up): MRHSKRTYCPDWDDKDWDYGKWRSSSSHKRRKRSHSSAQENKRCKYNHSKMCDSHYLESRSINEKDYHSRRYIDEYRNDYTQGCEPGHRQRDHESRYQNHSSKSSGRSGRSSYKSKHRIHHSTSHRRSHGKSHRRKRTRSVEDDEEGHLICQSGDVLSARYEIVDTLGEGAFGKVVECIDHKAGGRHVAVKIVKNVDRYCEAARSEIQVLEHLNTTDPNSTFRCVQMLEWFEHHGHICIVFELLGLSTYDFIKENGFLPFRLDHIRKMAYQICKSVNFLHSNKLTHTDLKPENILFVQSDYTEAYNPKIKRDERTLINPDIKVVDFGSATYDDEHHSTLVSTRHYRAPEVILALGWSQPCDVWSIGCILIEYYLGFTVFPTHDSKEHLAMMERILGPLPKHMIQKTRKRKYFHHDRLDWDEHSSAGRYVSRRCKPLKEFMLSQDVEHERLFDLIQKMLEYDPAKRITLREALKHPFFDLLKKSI

SMILES | target or system | assay | test system | setting | endpoint | result
NCc1cc2c(cc1F)C(=O)N(C1CCC(=O)NC1=O)C2 (stereo not drawn) | – | – | male CD-1 mouse, plasma | oral, 10 mg/kg, 19.8 min | concentration | 88.6 ng/mL
C=CC(=O)N1CCC(COCC(=O)N2CCN(c3nc(-c4cnc(N)nc4C(F)F)nc(N4CCOC[C@@H]4C)n3)CC2)CC1 | LCK (Homo sapiens, UniProt P06239) | binding, competition with immobilised ligand | – | 1 µM | remaining binding | 94%
CCc1cc(-c2noc(-c3cc(OC)nc(C4CCCC4)c3)n2)cc(C)c1OC[C@@H](O)CO | – | – | Wistar rat, plasma | oral, 3 mg/kg, 48 h, single dose | concentration | 32 ng/mL
Cc1noc(C)c1Cn1cc(N2C(=O)CN(Cc3cccc(O)c3)C2=O)cn1 | – | – | male Sprague-Dawley rat, plasma | oral, 30 mg/kg, 4 h | concentration | 15.9 ng/mL
COc1ccc2c(=O)n(C)c(-c3ccccc3)nc2c1 | – | – | male Sprague-Dawley rat, plasma | oral, 30 mg/kg, 30 min | concentration | 34.7 ng/mL
CCOC(=O)[C@@]12C[C@@H]1[C@@H](n1ccc3c(NC)nc(C#Cc4ccc(Cl)s4)nc31)[C@H](O)[C@@H]2O | – | – | male Sprague-Dawley rat, plasma | oral, 1 mg/kg, 4 h | concentration | 3.9 ng/mL
O=c1nc(N2CCN(CC3CCCCC3)CC2)sc2c([N+](=O)[O-])cc(C(F)(F)F)cc12 | – | – | CD-1 mouse, lung | intravenous, 10 mg/kg, 1 h | concentration | 2190 ng/mL
CNc1ncc2c(/C=C/C(=O)N3CCC(OC)CC3)nn(Cc3cccc(C(F)(F)F)c3)c2n1 | CLK1 (Homo sapiens, UniProt P49759) | enzyme activity, inhibitor, radiometric | – | 1 µM | remaining activity | 88%
Cc1[nH]c(C)c(S(=O)(=O)Nc2ccc(C(C)C)cc2)c1C(=O)N1CCCC1 | DRD3 (Homo sapiens, UniProt P35462) | β-arrestin recruitment, antagonist | – | – | IC50 | 14 µM
COc1cccc(-c2n[nH]c(SCc3ccccn3)n2)c1OC | – | – | female Sprague-Dawley rat, plasma | oral, 30 mg/kg, 30 min, single dose | concentration | 34800 ng/mL
O=C1CCC(N2Cc3cc(CO)c(F)cc3C2=O)C(=O)N1 (stereo not drawn) | – | – | male CD-1 mouse, plasma | intravenous, 1 mg/kg, 4.98 min | concentration | 820 ng/mL
COc1cc(-c2cncc3c2CN(C)Cc2cc(N4CCNCC4)ccc2-3)cc(OC)c1OC | MET (Homo sapiens, UniProt P08581, Y1230D) | enzyme activity, inhibitor | – | 1 µM | remaining activity | 90%

Repeated from above:
SMILES | target or system | assay | test system | setting | endpoint | result
CCOC(=O)[C@@]12C[C@@H]1[C@@H](n1ccc3c(NC)nc(C#Cc4ccc(Cl)s4)nc31)[C@H](O)[C@@H]2O | – | – | male Sprague-Dawley rat, plasma | oral, 1 mg/kg, 4 h | concentration | 3.9 ng/mL
O=c1nc(N2CCN(CC3CCCCC3)CC2)sc2c([N+](=O)[O-])cc(C(F)(F)F)cc12 | – | – | CD-1 mouse, lung | intravenous, 10 mg/kg, 1 h | concentration | 2190 ng/mL
